Experimental data collected from several papers.
Target: 5-hydroxytryptamine receptor 7 (HTR7, Homo sapiens, UniProt P34969)
Sequence of UniProt P34969 (whole entry, looked up): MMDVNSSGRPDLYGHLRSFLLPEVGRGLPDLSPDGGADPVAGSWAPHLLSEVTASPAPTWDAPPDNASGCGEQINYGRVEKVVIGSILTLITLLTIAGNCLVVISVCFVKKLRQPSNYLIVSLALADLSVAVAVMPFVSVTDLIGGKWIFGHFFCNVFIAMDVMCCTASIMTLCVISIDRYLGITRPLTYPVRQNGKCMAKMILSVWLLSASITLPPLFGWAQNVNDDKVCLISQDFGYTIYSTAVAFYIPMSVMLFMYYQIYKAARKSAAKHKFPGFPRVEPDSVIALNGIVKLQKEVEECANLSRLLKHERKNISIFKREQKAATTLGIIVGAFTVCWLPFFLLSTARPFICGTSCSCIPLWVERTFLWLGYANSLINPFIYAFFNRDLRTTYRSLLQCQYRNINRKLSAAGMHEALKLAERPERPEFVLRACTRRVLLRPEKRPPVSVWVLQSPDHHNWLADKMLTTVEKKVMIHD

Cc1ccnc(OC[C@H]2CN(CCN3CCc4ccccc43)CCO2)c1  inhibition (radioligand binding; concentration not given, added: [3H]LSD): 45.6%
Brc1ccccc1-c1nnc(CSc2nnnn2-c2ccccc2)o1  inhibition (ligand displacement, radioligand; 10 µM): -31%
CO[C@@H](C)c1c(NC(=O)Nc2cnc(-n3nccn3)c(C(F)(F)F)c2)cnc2sc(C)nc12  inhibition (ligand displacement, radioligand; 10 µM): 0.9%
CC1Cc2ccccc2N1C(=O)CN1CCN(c2ccccc2)CC1 (stereo not shown)  inhibition (radioligand binding; concentration not given, added: [3H]LSD): 58%
O=C1c2sc(-c3ccc(N4CCC(CO)CC4)nc3F)nc2CCN1c1cccnc1  inhibition (ligand displacement, radioligand; 1 µM): 0%
COc1ccc(C(=O)Nc2c(-c3cccs3)nc3ccccn23)cc1  inhibition (ligand displacement, radioligand; 10 µM): < 50%
C[Si]1(C[C@H](CN)CC(=O)O)CCCC1  inhibition (ligand displacement, radioligand; 70 µM): 4%
c1ccc(OC[C@H]2CN(CCN3CCc4ccccc43)CCO2)nc1  inhibition (radioligand binding; concentration not given, added: [3H]LSD): 28.1%
C[Si](C)(C)C[C@H](CN)CC(=O)O  inhibition (ligand displacement, radioligand; 250 µM): 1%
CCC(=O)N(C)c1ccc(Cl)c(Cl)c1  inhibition (ligand displacement, radioligand; 10 µM): < 10%

Some of these lines once more:
Cc1ccnc(OC[C@H]2CN(CCN3CCc4ccccc43)CCO2)c1  inhibition (radioligand binding; concentration not given, added: [3H]LSD): 45.6%
